Assay results collected from several papers.
Each line is one published result; not all experiments were run side by side. Values joined by “and” are separate records of one study, mostly repeats; a detail may differ. Numbers after ± are the reported error.
Cell line: MDA-MB-231

Compound | test | setting | IC50
C[C@H]1[C@H](OC(=O)CCC(=O)OCCC2CCN(CC(=O)Nc3ccc([N+](=O)[O-])c(C(F)(F)F)c3)CC2)O[C@@H]2O[C@@]3(C)CC[C@H]4[C@H](C)CC[C@@H]1[C@@]24OO3 | cell growth or viability, CCK-8 | – | > 50 µM
CCCc1cc2cc(-n3nc(C)c4c3CC3(CCC3)CC4=O)cc(N3CCC(O)CC3)c2c(=O)[nH]1 | cell growth or viability, MTS | – | 6.7 µM
Cc1cc(Oc2nc(N3CC[C@@H](c4ccncc4)C3)ncc2F)[nH]n1 | cell growth or viability | – | > 100 µM
C#CCCCC[C@H](C)C[C@@H](C)C(=O)N(C)[C@@H](C)C(=O)N1CCC[C@H]1C(=O)N(C)[C@H](C(=O)N(C)[C@H](C(=O)OC)C(C)C)C(C)C | cell growth or viability, SRB | – | 3.11 µM and 2.58 µM and 2.96 µM
CCC1=C(C)C2=C(c3ccc(C(=O)NCCNC(=O)c4ccc(P(=NC5=[O+][Ru-]([Cl])[n+]6ccccc65)(c5ccccc5)c5ccccc5)cc4)cc3)c3c(C)c(CC)c(C)n3[B-](F)(F)[N+]2=C1C.Cc1ccc(C(C)C)cc1.Cl | cell viability, MTT | 72 h, 0.1% DMSO | 116 ± 13.3 µM
C#CCCCC[C@H](C)C[C@@H](C)C(=O)N[C@@H](C)C(=O)N1CCC[C@H]1C(=O)N[C@H](C(=O)N[C@H](C(=O)N[C@H](C(=O)N[C@@H](Cc1ccccc1)C(=O)N1CCC[C@H]1C(=O)N1CCC[C@H]1C(C)=O)C(C)C)C(C)C)C(C)C | cell growth or viability, SRB | – | 6.69 µM and 7.15 µM and 7.03 µM
O=C(Cc1ccc(Cl)cc1)N1CCN(CC(OCc2ccc3ccccc3c2)c2ccc(Cl)cc2Cl)CC1 (centres unmarked) | cell growth or viability, MTT | 24 h | 15.5 µM
Cc1ccc(C(C)C)cc1.O=C(N=P(c1ccccc1)(c1ccccc1)c1ccccc1)c1ccccn1.[Cl-].[Cl][Ru+] | cell viability, MTT | 72 h, 0.1% DMSO | 2.72 ± 0.11 µM
Cc1ccc(CC(=O)N2CCN(CC(OCc3ccc4ccccc4c3)c3ccc(Cl)cc3Cl)CC2)cc1 (centres unmarked) | cell growth or viability, MTT | 24 h | 25 µM
CC(=O)[C@@H]1CCCN1C(=O)[C@@H]1CCCN1C(=O)[C@H](Cc1ccccc1)NC(=O)[C@@H](NC(=O)[C@@H](NC(=O)[C@@H](NC(=O)[C@@H]1CCCN1C(=O)[C@H](C)NC(=O)OC(C)(C)C)C(C)C)C(C)C)C(C)C | cell growth or viability, SRB | – | 9.65 µM and 9.43 µM and 9.27 µM
CCC1=C(C)C2=C(c3ccc(C(=O)NCCNC(=O)c4ccc(P(=NC(=O)c5ccccn5)(c5ccccc5)c5ccccc5)cc4)cc3)c3c(C)c(CC)c(C)n3[B-](F)(F)[N+]2=C1C | cell viability, MTT | 72 h, 0.1% DMSO | > 250 µM
Cc1ccccc1/C=C/C(=O)N[C@H]1COC(=O)[C@H](CC(=O)O)NC(=O)[C@H]([C@@H](O)C(=O)c2ccccc2N)NC(=O)[C@@H](Cc2ccccc2)NC(=O)[C@@H](NC(=O)[C@@H](Cc2ccccc2)NC(=O)CN)[C@@H](C)OC1=O | – | – | > 20 µM
CC(C)C12OC1C1OC13C1(C)CCC4=C(COC4=O)C1CC1OC13C2OC(=O)CCC(=O)OC1OC(CO)C(O)C(O)C1O (centres unmarked) | cell growth or viability, XTT | 47 h | 0.28 µM
CC1CCC2C(C)C(CCCOC(=O)C(Cc3ccc(N(CCCl)CCCl)cc3)NC(=O)OC(C)(C)C)OC3OC4(C)CCC1C32OO4 (centres unmarked) | cell growth or viability, CCK-8 | – | > 50 µM

Some of these lines once more:
Compound | test | setting | IC50
CC(C)C12OC1C1OC13C1(C)CCC4=C(COC4=O)C1CC1OC13C2OC(=O)CCC(=O)OC1OC(CO)C(O)C(O)C1O (centres unmarked) | cell growth or viability, XTT | 47 h | 0.28 µM
